Results collected from several papers.
Each line is one published result; not all experiments were run side by side.
Target: Amine oxidase [flavin-containing] A (MAOA, Homo sapiens, UniProt P21397)
UniProt P21397, sequence (whole entry, looked up): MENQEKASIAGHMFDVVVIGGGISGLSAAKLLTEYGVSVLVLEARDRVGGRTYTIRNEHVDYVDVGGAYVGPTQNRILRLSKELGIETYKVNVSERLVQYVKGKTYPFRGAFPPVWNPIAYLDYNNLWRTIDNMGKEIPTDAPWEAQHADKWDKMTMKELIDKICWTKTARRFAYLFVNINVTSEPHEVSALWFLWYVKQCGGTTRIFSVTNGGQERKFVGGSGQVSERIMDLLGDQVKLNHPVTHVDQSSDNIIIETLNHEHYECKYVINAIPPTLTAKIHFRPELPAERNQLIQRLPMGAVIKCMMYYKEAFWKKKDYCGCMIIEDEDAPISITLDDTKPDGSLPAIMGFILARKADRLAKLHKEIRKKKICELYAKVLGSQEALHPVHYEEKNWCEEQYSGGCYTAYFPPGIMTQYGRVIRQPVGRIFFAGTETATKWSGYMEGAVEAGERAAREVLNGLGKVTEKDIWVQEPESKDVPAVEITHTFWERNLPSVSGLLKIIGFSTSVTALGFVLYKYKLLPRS
Observed: enzyme activity
Action: inhibitor
Tested at: 10 µM

`O=C(/C=C/c1cccc(Br)c1)c1cc2ccccc2oc1=O` gave a remaining activity of 86.2%.
With `O=C1c2cc(Br)ccc2NC12CCCC2` the remaining activity was 75.5%.
`NC(=S)N/N=C/c1ccc(OCc2ccccc2)cc1` gave a remaining activity of 124% (absorbance).
The remaining activity of `O=C(/C=C/c1ccccc1)c1cc2ccccc2oc1=O` is reported as 94.8%.
`O=C1c2cc(Cl)ccc2N(Cc2ccccc2)C12CCCC2` gave a remaining activity of 66%.
For `NC(=S)N/N=C/c1ccccc1OCc1ccccc1`, the remaining activity was 66% (absorbance).
With `O=C(/C=C/c1ccc([N+](=O)[O-])cc1)c1ccc(N2CCNCC2)cc1` the remaining activity was 98.1%.
For `O=C(/C=C/c1ccccc1F)c1cc2ccccc2oc1=O`, the remaining activity was 83.1%.
For `O=C(/C=C/c1ccc(O)cc1)c1ccc(N2CCNCC2)cc1`, the remaining activity was 76.4%.
`Fc1cccc(COc2ccc(/C=N/NC(=S)Nc3ccccc3)cc2)c1` gave a remaining activity of 97.4% (absorbance).
With `O=C(/C=C/c1ccc(F)cc1)c1ccc(N2CCNCC2)cc1` the remaining activity was 94.5%.
With `O=C1c2ccccc2N(Cc2ccc(F)cc2)C12CCCC2` the remaining activity was 73.8%.
`CN(C)c1ccc(/C=C/C(=O)c2ccc(N3CCNCC3)cc2)cc1` has a remaining activity of 80.1%.
With `O=C1c2ccccc2N(Cc2cccc(Cl)c2)C12CCCC2` the remaining activity was 45.2%.
The remaining activity of `O=C(/C=C/c1cccc(Cl)c1)c1cc2ccccc2oc1=O` is reported as 95.5%.
For `NC(=O)N/N=C/c1ccc(OCc2cccc(F)c2)cc1`, the remaining activity was 45.8% (absorbance).
With `O=C1c2ccccc2N(Cc2ccccc2)C12CCCC2` the remaining activity was 80.7%.
The remaining activity of `NC(=O)N/N=C/c1cccc(OCc2ccccc2)c1` is reported as 66.6% (absorbance).
`Cc1ccc(/C=C/C(=O)c2ccc(N3CCNCC3)cc2)cc1` gave a remaining activity of 82.9%.
`CNC(=S)N/N=C/c1cccc(OCc2ccccc2)c1` gave a remaining activity of 36.6% (absorbance).
With `O=C(/C=C/c1cccc(F)c1)c1cc2ccccc2oc1=O` the remaining activity was 98.8%.
